Assay results of several laboratories.
± marks the error that the study gave.

CCCC[C@H](NC(=O)CCCCCCCNC(=O)CN1CCN(CC(=O)O)CCN(CC(=O)O)CC1)C(=O)N[C@H]1CC(=O)NCCCC[C@@H](C(N)=O)NC(=O)[C@H](Cc2c[nH]c3ccccc23)NC(=O)[C@H](CCCNC(=N)N)NC(=O)[C@@H](Cc2ccccc2)NC(=O)[C@H](Cc2c[nH]cn2)NC1=O [copper-64 labelled]
tissue uptake (C57 mice, spleen; intravenous, 0.37 MBq, 24 h): 0.1 ± 0.14 %ID/g

CCCC[C@H](NC(=O)CNC(=O)CNC(=O)CN1CCN(CC(=O)O)CCN(CC(=O)O)CC1)C(=O)N[C@H]1CC(=O)NCCCC[C@@H](C(N)=O)NC(=O)[C@H](Cc2c[nH]c3ccccc23)NC(=O)[C@H](CCCNC(=N)N)NC(=O)[C@@H](Cc2ccccc2)NC(=O)[C@H](Cc2c[nH]cn2)NC1=O [technetium-99m labelled]
tissue uptake (C57 mouse, kidney; iv, 0.037 MBq, 0.5 h): 7.16 ± 0.79 %ID/g

CCCC[C@H](NC(=O)COCCOCCNC(=O)CN1CCN(CC(=O)O)CCN(CC(=O)O)CC1)C(=O)N[C@H]1CC(=O)NCCCC[C@@H](C(N)=O)NC(=O)[C@H](Cc2c[nH]c3ccccc23)NC(=O)[C@H](CCCNC(=N)N)NC(=O)[C@@H](Cc2ccccc2)NC(=O)[C@H](Cc2c[nH]cn2)NC1=O [copper-64 labelled]
tissue uptake (C57 mice, blood; intravenous, 0.37 MBq, 0.5 h): 3.48 ± 0.95 %ID/g

Cc1cc(-c2ccc(NC(=O)[C@H](CCCCNC(=O)CCN3C(=O)CC(SCCC(=O)N[C@H](Cc4ccccc4)C(=O)N[C@H]4CSSC[C@@H](C(=O)N[C@H](C(=O)O)[C@@H](C)O)NC(=O)[C@H]([C@@H](C)O)NC(=O)[C@H](CCCCN)NC(=O)[C@@H](Cc5c[nH]c6ccccc56)NC(=O)[C@H](Cc5ccc(O)cc5)NC4=O)C3=O)NC(=O)CN3CCN(CC(=O)O)CCN(CC(=O)O)CCN(CC(=O)O)CC3)c(C)c2)ccc1N=Nc1ccc2c(S(=O)(=O)O)cc(S(=O)(=O)O)c(N)c2c1O (stereo partly drawn) [lutetium-177 labelled]
absorbed dose (metastatic NET patients, lymph node metastases): 0.62 ± 0.06 Gy/GBq

CC(C)C[C@H](NC(=O)[C@H](Cc1ccc(O)cc1)NC(=O)[C@@H](CCCNC(=N)N)NC(=O)[C@@H](CO)NC(=O)[C@H](Cc1ccccc1)NC(=O)[C@H](CC1CCCCC1)NC(=O)[C@H](CC(=O)O)NC(=O)CN1CCCN2CCN(CCCN(CC(=O)O)CC2)CC1)C(=O)N[C@@H](Cc1c[nH]c2ccccc12)C(=O)N[C@@H](CO)C(=O)O [copper-64 labelled]
tissue uptake (female NMRI nude mice, stomach; 1 h p.i.): 1.7 ± 0.6 %ID/g

N=C(N)NCCC[C@@H]1NC(=O)[C@H](CCCCNC(=O)CNC(=O)CNC(=O)CNC(=O)CC[C@H](NC(=O)CNC(=O)CNC(=O)CNC(=O)CN2CCN(CC(=O)O)CCN(CC(=O)O)CCN(CC(=O)O)CC2)C(=O)NCC(=O)NCC(=O)NCC(=O)NCCCC[C@@H]2NC(=O)[C@@H](Cc3ccccc3)NC(=O)[C@H](CC(=O)O)NC(=O)CNC(=O)[C@H](CCCNC(=N)N)NC2=O)NC(=O)[C@@H](Cc2ccccc2)NC(=O)[C@H](CC(=O)O)NC(=O)CNC1=O [indium-111 labelled]
tissue uptake (female athymic nu/nu mice, liver; intravenous, 72 h): 0.85 ± 0.09 %ID/g

CCCC[C@H](NC(=O)CNC(=O)CNC(=O)CN1CCN(CC(=O)O)CCN(CC(=O)O)CCN(CC(=O)O)CC1)C(=O)N[C@H]1CC(=O)NCCCC[C@@H](C(N)=O)NC(=O)[C@H](Cc2c[nH]c3ccccc23)NC(=O)[C@H](CCCNC(=N)N)NC(=O)[C@@H](Cc2ccccc2)NC(=O)[C@H](Cc2c[nH]cn2)NC1=O [lutetium-177 labelled]
tissue uptake (C57 mouse, female, brain; intravenous, 0.037 MBq, 4 h): 0.09 ± 0.03 %ID/g

C/C=C(/C)C(=O)O[C@H]1C(C)=C2[C@H]([C@@H]1OC(=O)CCCCCCC)[C@@](C)(OC(C)=O)C[C@H](OC(=O)CCCCCCCCCCCNC(=O)C[C@H](N)C(=O)N[C@@H](CCC(=O)N[C@@H](CCC(=O)N[C@@H](CCC(=O)N[C@@H](CCC(=O)O)C(=O)O)C(=O)O)C(=O)O)C(=O)O)[C@@]1(O)[C@H]2OC(=O)[C@@]1(C)O
alpha half-life (human patients, plasma; intravenous infusion, 1 h infusion): 2.05 h

N=C(N)NCCC[C@@H]1NC(=O)[C@H](CCCCNC(=O)CNC(=O)CNC(=O)CNC(=O)CC[C@H](NC(=O)CNC(=O)CNC(=O)CNC(=O)CC[C@H](NC(=O)CN2CCN(CC(=O)O)CCN(CC(=O)O)CCN(CC(=O)O)CC2)C(=O)NCC(=O)NCC(=O)NCC(=O)N[C@@H](CCC(=O)NCC(=O)NCC(=O)NCC(=O)NCCCC[C@@H]2NC(=O)[C@@H](Cc3ccccc3)NC(=O)[C@H](CC(=O)O)NC(=O)CNC(=O)[C@H](CCCNC(=N)N)NC2=O)C(=O)NCC(=O)NCC(=O)NCC(=O)NCCCC[C@@H]2NC(=O)[C@@H](Cc3ccccc3)NC(=O)[C@H](CC(=O)O)NC(=O)CNC(=O)[C@H](CCCNC(=N)N)NC2=O)C(=O)NCC(=O)NCC(=O)NCC(=O)NCCCC[C@@H]2NC(=O)[C@@H](Cc3ccccc3)NC(=O)[C@H](CC(=O)O)NC(=O)CNC(=O)[C@H](CCCNC(=N)N)NC2=O)NC(=O)[C@@H](Cc2ccccc2)NC(=O)[C@H](CC(=O)O)NC(=O)CNC1=O [indium-111 labelled]
tissue uptake (female athymic nu/nu mice, brain; intravenous, 24 h): 0.12 ± 0.07 %ID/g

Some of these lines once more:
C/C=C(/C)C(=O)O[C@H]1C(C)=C2[C@H]([C@@H]1OC(=O)CCCCCCC)[C@@](C)(OC(C)=O)C[C@H](OC(=O)CCCCCCCCCCCNC(=O)C[C@H](N)C(=O)N[C@@H](CCC(=O)N[C@@H](CCC(=O)N[C@@H](CCC(=O)N[C@@H](CCC(=O)O)C(=O)O)C(=O)O)C(=O)O)C(=O)O)[C@@]1(O)[C@H]2OC(=O)[C@@]1(C)O
alpha half-life (human patients, plasma; intravenous infusion, 1 h infusion): 2.05 h

CC(C)C[C@H](NC(=O)[C@H](Cc1ccc(O)cc1)NC(=O)[C@@H](CCCNC(=N)N)NC(=O)[C@@H](CO)NC(=O)[C@H](Cc1ccccc1)NC(=O)[C@H](CC1CCCCC1)NC(=O)[C@H](CC(=O)O)NC(=O)CN1CCCN2CCN(CCCN(CC(=O)O)CC2)CC1)C(=O)N[C@@H](Cc1c[nH]c2ccccc12)C(=O)N[C@@H](CO)C(=O)O [copper-64 labelled]
tissue uptake (female NMRI nude mice, stomach; 1 h p.i.): 1.7 ± 0.6 %ID/g
